Published values gathered from unrelated publications.
Protocols differ between the studies behind these lines. Several values in a cell are separate wells, animals, samples, runs or records. Numbers after ± are the reported error. No end group written: not given here. *: point of attachment.
B1: CACYBP (Homo sapiens, UniProt Q9HB71); sequence looked up; chain MASEELQKDLEEVKVLLEKATRKRVRDALTAEKSKIETEIKNKMQQKSQKKAELLDNEKPAAVVAPITTGYTVKISNYGWDQSDKFVKIYITLTGVHQVPTENVQVHFTERSFDLLVKNLNGKSYSMIVNNLLKPISVEGSSKKVKTDTVLILCRKKVENTRWDYLTQVEKECKEKEKPSYDTETDPSEGLMNVLKKIYEDGDDDMKRTINKAWVESREKQAKGDTEF
B2: UGT1A9 (Homo sapiens, UniProt O60656); chain GKLLVVPMDGSHWFTMRSVVEKLILRGHEVVVVMPEVSWQLGRSLNCTVKTYSTSYTLEDLDREFKAFAHAQWKAQVRSIYSLLMGSYNDIFDLFFSNCRSLFKDKKLVEYLKESSFDAVFLDPFDNCGLIVAKYFSLPSVVFARGILCHYLEEGAQCPAPLSYVPRILLGFSDAMTFKERVRNHIMHLEEHLLCHRFFKNALEIASEILQTPVTEYDLYSHTSIWLLRTDFVLDYPKPVMPNMIFIGGINCHQGKPLPMEFEAYINASGEHGIVVFSLGSMVSEIPEKKAMAIADALGKIPQTVLWRYTGTRPSNLANNTILVKWLPQNDLLGHPMTRAFITHAGSHGVYESICNGVPMVMMPLFGDQMDNAKRMETKGAGVTLNVLEMTSEDLENALKAVINDKSYKENIMRLSSLHKDRPVEPLDLAVFWVEFVMRHKGAPHLRPAAHDLTWYQYHSLDVIGFLLAVVLTVAFITFKCCAYGYRKCLGKKGRVKKAHKSKTH
B3: Reln 1948-2662 (Mus musculus, UniProt Q60841); chain DGNNLNNPVLLLDTFDFGPREDNWFFYPGGNIGLYCPYSSKGAPEEDSAMVFVSNEVGEHSITTRDLSVNENTIIQFEINVGCSTDSSSADPVRLEFSRDFGATWHLLLPLCYHSSSLVSSLCSTEHHPSSTYYAGTTQGWRREVVHFGKLHLCGSVRFRWYQGFYPAGSQPVTWAIDNVYIGPQCEEMCYGHGSCINGTKCICDPGYSGPTCKISTKNPDFLKDDFEGQLESDRFLLMSGGKPSRKCGILSSGNNLFFNEDGLRMLVTRDLDLSHARFVQFFMRLGCGKGVPDPRSQPVLLQYSLNGGLSWSLLQEFLFSNSSNVGRYIALEMPLKARSGSTRLRWWQPSENGHFYSPWVIDQILIGGNISGNTVLEDDFSTLDSRKWLLHPGGTKMPVCGSTGDALVFIEKASTRYVVTTDIAVNEDSFLQIDFAASCSVTDSCYAIELEYSVDLGLSWHPLVRDCLPTNVECSRYHLQRILVSDTFNKWTRITLPLPSYTRSQATRFRWHQPAPFDKQQTWAIDNVYIGDGCLDMCSGHGRCVQGSCVCDEQWGGLYCDEPETSLPTQLKDNFNRAPSNQNWLTVSGGKLSTVCGAVASGLALHFSGGCSRLLVTVDLNLTNAEFIQFYFMYGCLITPSNRNQGVLLEYSVNGGITWNLLMEIFYDQYSKPGFVNILLPPDAKEIATRFRWWQPRHDGLDQNDWAIDNVLIS
B4: ULBP1 29-216 (Homo sapiens, UniProt Q9BZM6); Alexa Fluor 647 label; chain DTHCLCYDFIITPKSRPEPQWCEVQGLVDERPFLHYDCVNHKAKAFASLGKKVNVTKTWEEQTETLRDVVDFLKGQLLDIQVENLIPIEPLTLQARMSCEHEAHGHGRGSWQFLFNGQKFLLFDSNNRKWTALHPGAKKMTEKWEKNRDVTMFFQKISLGDCKMWLEEFLMYWEQMLDPTKPPSLAPG
B5: MYH7 839-968 (Homo sapiens, UniProt P12883); sequence looked up; chain LLKSAEREKEMASMKEEFTRLKEALEKSEARRKELEEKMVSLLQEKNDLQLQVQAEQDNLADAEERCDQLIKNKIQLEAKVKEMNERLEDEEEMNAELTAKKRKLEDECSELKRDIDDLELTLAKVEKEK
Sequence of UniProt Q08AI8 (whole entry, looked up): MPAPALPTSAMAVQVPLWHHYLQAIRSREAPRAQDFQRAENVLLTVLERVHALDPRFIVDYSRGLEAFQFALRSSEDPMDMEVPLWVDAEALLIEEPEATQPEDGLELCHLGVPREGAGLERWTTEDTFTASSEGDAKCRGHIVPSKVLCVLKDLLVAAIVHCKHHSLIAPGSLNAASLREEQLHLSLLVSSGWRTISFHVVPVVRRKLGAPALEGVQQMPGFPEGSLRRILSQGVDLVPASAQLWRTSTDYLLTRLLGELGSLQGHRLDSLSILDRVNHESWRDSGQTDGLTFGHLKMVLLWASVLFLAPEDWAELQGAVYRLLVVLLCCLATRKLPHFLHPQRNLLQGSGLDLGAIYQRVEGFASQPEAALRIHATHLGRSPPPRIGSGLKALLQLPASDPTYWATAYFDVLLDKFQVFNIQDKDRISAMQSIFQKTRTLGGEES

Molecule | tested on | test | test system | conditions | endpoint | result
IL31RA Fc fusion, CBD with 1 FNIII (Felis catus) | IL31 residues 1-136 (Felis catus) | flow cytometry | yeast |  | Kd | 0.106 µM
PTH E19A/E22A, fluorescein at Lys13 | PTH1R (Homo sapiens, UniProt Q03431) | fluorescence polarisation |  |  | Kd | 0.082 µM and 0.224 µM
BACH1 BTB domain (Homo sapiens) (sequence not shown) | FBXL17/SKP1 FBXL17 310-701 (Homo sapiens) | BLI |  | 30 °C, apparent | Kd | > 2.4 µM
B1 (CACYBP) | MAB21L4 (Homo sapiens, UniProt Q08AI8) | MST |  |  | Kd | 2.1 µM
CFH CCP1-4 V62I (Homo sapiens) | C3 C3b (Homo sapiens) | SPR |  | 20 µM, 25 °C | Kd | 14 µM
{5‑TAMRA-Ahx}-NLSELDRLLDELN (PXN residues 141-153 L10D; N-terminal TAMRA, aminohexanoyl linker; 5‑TAMRA = CN(C)c1ccc2c(-c3ccc(C(=O)*)cc3C(=O)[O-])c3ccc(N(C)C)cc3[o+]c2c1; Ahx = NCCCCCC(=O)O) | PTK2 892-1052 L1035D (Homo sapiens, UniProt Q05397) | fluorescence polarisation | peptide |  | Kd | 4500 µM
B2 (UGT1A9) | COc1ccc2c(=O)c(O)c(-c3ccccc3)oc2c1 | steady-state kinetics |  | pH 7.4, 37 °C | Km | 0.27 µM
B3 (Reln 1948-2662) | LRP8 ectodomain, lacking LA4-6 (Homo sapiens) | SPR |  | steady-state affinity | Kd | 0.012 µM
B4 (ULBP1 29-216) | KLRK1/HCST, terbium label on SNAP-tag (Homo sapiens) | TR-FRET | HEK293 TRex | apparent, in cells | Kd | 0.07 µM
B5 (MYH7 839-968) | MYH7/MYL3 sS1 1-808 D239N (Homo sapiens) | MST |  | pH 7.5, KCl 100 mM, Hill fit, with: ADP 500 µM | Kd | 60 ± 8 µM

For quick reference, copied from above:
Molecule | tested on | test | test system | conditions | endpoint | result
BACH1 BTB domain (Homo sapiens) (sequence not shown) | FBXL17/SKP1 FBXL17 310-701 (Homo sapiens) | BLI |  | 30 °C, apparent | Kd | > 2.4 µM
B1 (CACYBP) | MAB21L4 (Homo sapiens, UniProt Q08AI8) | MST |  |  | Kd | 2.1 µM
